# Measured values from different studies.
# Protocols differ between the studies behind these lines. ± marks the error that the study gave.
# SHB SH2 domain: SH2 domain-containing adapter protein B, SH2 domain (SHB, Homo sapiens, UniProt Q15464)
# Sequence of UniProt Q15464 (whole entry, looked up): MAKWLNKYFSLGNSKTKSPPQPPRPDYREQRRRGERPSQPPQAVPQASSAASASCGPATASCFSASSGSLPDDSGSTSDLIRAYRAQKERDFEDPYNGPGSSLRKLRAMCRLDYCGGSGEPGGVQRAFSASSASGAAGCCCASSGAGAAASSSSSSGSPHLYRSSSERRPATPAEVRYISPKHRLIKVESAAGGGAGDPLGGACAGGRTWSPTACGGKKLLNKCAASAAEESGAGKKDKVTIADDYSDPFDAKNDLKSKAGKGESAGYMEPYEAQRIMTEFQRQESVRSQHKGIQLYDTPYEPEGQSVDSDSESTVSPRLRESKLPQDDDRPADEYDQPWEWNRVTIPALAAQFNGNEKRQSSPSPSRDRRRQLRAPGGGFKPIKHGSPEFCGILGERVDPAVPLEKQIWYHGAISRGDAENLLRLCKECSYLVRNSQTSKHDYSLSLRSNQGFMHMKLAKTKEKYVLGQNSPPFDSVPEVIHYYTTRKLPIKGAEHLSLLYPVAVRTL
# Sequence of UniProt P29350 (whole entry, looked up): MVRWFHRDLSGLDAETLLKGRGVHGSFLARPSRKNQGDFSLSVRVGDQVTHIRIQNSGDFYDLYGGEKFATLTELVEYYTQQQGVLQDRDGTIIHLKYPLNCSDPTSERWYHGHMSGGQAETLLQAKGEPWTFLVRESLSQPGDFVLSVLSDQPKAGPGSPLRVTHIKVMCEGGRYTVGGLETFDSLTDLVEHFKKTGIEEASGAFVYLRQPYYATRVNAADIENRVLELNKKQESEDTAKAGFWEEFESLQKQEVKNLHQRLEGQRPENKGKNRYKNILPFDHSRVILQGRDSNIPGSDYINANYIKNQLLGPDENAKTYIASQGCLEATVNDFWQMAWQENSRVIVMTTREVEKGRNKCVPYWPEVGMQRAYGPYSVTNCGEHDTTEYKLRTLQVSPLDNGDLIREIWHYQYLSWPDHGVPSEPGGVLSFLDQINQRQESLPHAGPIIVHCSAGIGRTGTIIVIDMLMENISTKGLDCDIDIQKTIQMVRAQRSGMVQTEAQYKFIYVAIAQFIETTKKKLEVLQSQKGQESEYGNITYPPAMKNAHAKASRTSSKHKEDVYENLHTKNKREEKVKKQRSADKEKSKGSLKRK
# Sequence of UniProt P07948 (whole entry, looked up): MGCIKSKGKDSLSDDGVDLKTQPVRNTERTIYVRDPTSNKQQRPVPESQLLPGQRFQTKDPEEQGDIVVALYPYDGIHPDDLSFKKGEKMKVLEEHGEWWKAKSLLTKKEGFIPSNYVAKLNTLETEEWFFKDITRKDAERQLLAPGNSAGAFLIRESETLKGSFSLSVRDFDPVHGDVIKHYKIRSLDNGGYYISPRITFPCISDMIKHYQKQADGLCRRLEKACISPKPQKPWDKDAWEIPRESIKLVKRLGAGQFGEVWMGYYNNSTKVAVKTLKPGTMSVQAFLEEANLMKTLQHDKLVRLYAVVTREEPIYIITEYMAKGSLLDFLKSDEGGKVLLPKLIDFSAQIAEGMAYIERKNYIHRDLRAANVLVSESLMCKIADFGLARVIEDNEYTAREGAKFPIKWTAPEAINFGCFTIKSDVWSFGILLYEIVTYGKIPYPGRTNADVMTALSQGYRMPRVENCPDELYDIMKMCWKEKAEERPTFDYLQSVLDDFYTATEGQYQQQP
# Sequence of UniProt P02829 (whole entry, looked up): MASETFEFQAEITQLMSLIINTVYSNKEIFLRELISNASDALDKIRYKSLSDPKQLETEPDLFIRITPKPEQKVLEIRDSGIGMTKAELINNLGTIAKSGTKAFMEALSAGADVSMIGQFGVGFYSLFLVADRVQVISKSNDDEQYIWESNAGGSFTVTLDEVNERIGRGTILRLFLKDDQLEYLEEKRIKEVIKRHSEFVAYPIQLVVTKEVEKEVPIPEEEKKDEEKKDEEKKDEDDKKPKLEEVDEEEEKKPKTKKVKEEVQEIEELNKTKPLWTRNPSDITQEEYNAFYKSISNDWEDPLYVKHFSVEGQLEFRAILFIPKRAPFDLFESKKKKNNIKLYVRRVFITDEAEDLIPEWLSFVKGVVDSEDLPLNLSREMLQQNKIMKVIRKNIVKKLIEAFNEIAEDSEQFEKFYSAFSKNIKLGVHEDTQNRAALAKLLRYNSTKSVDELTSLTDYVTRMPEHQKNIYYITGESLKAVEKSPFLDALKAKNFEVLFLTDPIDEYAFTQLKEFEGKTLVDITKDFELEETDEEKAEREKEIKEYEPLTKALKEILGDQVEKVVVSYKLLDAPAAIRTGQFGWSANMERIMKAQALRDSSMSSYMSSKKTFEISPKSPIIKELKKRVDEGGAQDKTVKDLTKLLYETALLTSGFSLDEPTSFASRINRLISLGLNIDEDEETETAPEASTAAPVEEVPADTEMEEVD
# Sequence of UniProt P98170 (whole entry, looked up): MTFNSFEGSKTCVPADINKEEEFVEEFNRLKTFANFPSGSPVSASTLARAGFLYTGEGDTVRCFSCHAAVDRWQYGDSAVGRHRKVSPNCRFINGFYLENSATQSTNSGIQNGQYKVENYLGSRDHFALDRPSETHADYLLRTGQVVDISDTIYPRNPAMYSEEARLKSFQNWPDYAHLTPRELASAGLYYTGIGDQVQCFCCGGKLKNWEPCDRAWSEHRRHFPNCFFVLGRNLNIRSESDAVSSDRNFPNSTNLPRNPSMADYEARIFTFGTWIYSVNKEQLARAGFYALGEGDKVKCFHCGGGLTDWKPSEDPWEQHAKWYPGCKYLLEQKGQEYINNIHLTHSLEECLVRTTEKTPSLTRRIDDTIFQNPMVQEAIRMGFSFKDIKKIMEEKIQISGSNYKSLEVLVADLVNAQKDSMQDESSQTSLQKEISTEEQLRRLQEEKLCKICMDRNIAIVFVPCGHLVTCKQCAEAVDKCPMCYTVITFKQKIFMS
# Sequence of UniProt P49116 (whole entry, looked up): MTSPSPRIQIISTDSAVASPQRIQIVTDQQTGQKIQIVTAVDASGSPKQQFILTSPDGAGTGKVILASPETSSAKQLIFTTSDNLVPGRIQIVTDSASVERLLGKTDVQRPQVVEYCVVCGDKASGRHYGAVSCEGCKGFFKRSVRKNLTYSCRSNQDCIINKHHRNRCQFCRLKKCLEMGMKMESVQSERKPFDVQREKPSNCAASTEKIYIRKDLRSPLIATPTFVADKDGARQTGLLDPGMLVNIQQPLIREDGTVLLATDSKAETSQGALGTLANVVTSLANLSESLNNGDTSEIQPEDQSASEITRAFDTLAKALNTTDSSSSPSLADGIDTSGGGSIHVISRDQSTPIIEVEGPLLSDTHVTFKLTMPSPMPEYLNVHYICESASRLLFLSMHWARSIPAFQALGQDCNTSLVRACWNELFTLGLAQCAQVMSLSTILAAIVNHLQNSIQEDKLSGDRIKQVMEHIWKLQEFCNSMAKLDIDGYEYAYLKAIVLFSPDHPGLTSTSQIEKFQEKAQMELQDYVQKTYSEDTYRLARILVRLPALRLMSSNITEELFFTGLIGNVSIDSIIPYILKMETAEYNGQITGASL
# Sequence of UniProt P49760 (whole entry, looked up): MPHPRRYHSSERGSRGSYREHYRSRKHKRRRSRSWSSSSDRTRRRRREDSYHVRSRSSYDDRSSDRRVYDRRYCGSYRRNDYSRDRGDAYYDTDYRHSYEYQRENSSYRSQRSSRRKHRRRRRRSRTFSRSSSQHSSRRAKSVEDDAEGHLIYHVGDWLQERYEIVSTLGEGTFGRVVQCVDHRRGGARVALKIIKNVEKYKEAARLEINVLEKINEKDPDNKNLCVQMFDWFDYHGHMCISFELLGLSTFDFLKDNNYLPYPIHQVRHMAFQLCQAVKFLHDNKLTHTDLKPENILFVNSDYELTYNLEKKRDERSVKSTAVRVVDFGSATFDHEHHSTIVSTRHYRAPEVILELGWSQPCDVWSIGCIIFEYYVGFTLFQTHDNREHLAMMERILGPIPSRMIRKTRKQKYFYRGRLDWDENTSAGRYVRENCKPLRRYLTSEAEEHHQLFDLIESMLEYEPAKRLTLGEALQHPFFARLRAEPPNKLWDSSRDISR
# Sequence of UniProt P40073 (whole entry, looked up): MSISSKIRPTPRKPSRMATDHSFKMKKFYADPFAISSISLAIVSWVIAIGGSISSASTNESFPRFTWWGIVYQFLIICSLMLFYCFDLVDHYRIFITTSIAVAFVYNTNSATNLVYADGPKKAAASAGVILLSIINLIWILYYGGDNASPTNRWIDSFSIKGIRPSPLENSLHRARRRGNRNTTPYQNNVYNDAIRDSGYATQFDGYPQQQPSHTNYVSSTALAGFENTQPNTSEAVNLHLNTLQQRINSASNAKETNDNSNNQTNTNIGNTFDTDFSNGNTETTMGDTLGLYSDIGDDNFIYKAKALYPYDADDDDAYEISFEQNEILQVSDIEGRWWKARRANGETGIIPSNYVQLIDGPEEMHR
# Sequence of UniProt P35346 (whole entry, looked up): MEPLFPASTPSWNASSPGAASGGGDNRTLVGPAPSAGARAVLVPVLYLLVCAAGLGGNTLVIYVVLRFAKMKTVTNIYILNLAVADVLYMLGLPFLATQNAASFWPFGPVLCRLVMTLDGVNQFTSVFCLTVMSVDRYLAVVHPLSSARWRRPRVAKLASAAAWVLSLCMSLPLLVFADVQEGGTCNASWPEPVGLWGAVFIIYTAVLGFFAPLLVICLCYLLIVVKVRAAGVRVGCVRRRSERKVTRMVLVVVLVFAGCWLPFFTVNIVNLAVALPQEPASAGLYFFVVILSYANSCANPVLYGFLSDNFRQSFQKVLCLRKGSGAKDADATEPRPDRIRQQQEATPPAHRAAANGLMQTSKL
# Sequence of UniProt P62937 (whole entry, looked up): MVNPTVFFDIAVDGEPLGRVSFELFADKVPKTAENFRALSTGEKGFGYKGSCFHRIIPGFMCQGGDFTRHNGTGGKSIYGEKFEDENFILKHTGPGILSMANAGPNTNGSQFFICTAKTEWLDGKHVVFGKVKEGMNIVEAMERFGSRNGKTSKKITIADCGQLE
SMILES,target or system,test,test system,conditions,scale,quantity,result
Nc1ccn([C@H]2C[C@H](O)[C@@H](COP(=O)(O)OP(=O)(O)OP(=O)(O)O)O2)c(=O)n1,"DNA polymerase I, Klenow fragment (polA, Escherichia coli, UniProt P00582, C907S/D424A/L744C/Y766A)","substrate, single-turnover chemical quench",,with: dNTP,,Kd,8.2 µM
C[N+](C)(C)[C@@H](Cc1c[nH]c(=S)[nH]1)C(=O)[O-],"Ergothioneine transport permease/ergothioneine binding protein EgtU, substrate-binding domain (egtU, Helicobacter pylori, UniProt B5Z7I3)","binding, isothermal titration calorimetry",,substrate-binding domain,,Kd,2.02 µM
Nc1ncnc2c1ncn2[C@@H]1O[C@H](COP(=O)(O)OP(=O)(O)NP(=O)(O)O)[C@@H](O)[C@H]1O,"Cell cycle histidine kinase CckA, G318A; cytoplasmic region (Caulobacter vibrioides, UniProt Q9X688, G318A)",isothermal titration calorimetry,Caulobacter crescentus,"12 °C, with: without c-di-GMP",,Kd,25 µM
CO[C@H]1C[C@@H]2CC[C@@H](C)[C@@](O)(O2)C(=O)C(=O)N2CCCC[C@H]2C(=O)O[C@H]([C@H](C)C[C@@H]2CC[C@@H](OC(=O)NCCOCCOCCOCCOCCOCCOCCOCCOCCC(=O)N3CCc4cc(Cn5nc(-c6ccc7oc(N)nc7c6)c6c(N)ncnc65)ccc4C3)[C@H](OC)C2)C[C@@H](O)[C@H](C)/C=C(\C)[C@@H](O)[C@@H](OC)C(=O)[C@H](C)C[C@H](C)/C=C/C=C/C=C/1C,,,patients with advanced solid tumours,"intravenous, 16 mg weekly, any grade",,diarrhoea incidence,25%
CC(C)C[C@H](NC(=O)[C@H](CCC(N)=O)NC(=O)[C@H](CC(C)C)NC(=O)[C@H](CC(C)C)NC(=O)[C@H](CO)NC(=O)[C@H](Cc1c[nH]cn1)NC(=O)[C@H](CC(C)C)NC(=O)[C@H](CC(=O)O)NC(=O)[C@H](CO)NC(=O)[C@H](CCC(=O)O)NC(=O)[C@H](Cc1ccccc1)NC(=O)[C@H](C)NC(=O)[C@H](Cc1ccccc1)NC(=O)[C@H](CCC(N)=O)NC(=O)[C@H](C)N)C(=O)N[C@@H](CCCCN)C(=O)N[C@@H](CCCCN)C(=O)N[C@@H](CCCCN)C(=O)N[C@@H](CCCCNC(=O)CCCCCNC(=S)Nc1ccc2c(c1)C(=O)OC21c2ccc(O)cc2Oc2cc(O)ccc21)C(N)=O,"E3 ubiquitin-protein ligase XIAP, BIR1 domain (XIAP, Homo sapiens, UniProt P98170)",fluorescence polarization,,"BIR domain, with: FITC-labelled peptide 20 nM",,Kd,no binding
CC(C)C[C@H](NC(=O)[C@@H](NC(=O)[C@H](CO)NC(=O)[C@H](CO)NC(=O)[C@@H](NC(=O)[C@H](CC(=O)O)NC(=O)[C@H](CC(C)C)NC(=O)[C@@H]1CCCN1C(=O)[C@H](CO)NC(=O)c1ccc2c(c1)C(=O)OC21c2ccc(N(C)C)cc2Oc2cc(N(C)C)ccc21)[C@@H](C)O)C(C)C)C(=O)N[C@@H](Cc1ccc(OP(=O)(O)O)cc1)C(=O)N[C@H](C(=O)N[C@@H](C)C(=O)N[C@H](C(=O)N[C@@H](CCC(N)=O)C(=O)N1CCC[C@H]1C(=O)N[C@@H](CC(N)=O)C(=O)N[C@@H](CCC(=O)O)C(=O)N[C@@H](CC(=O)O)C(=O)O)C(C)C)[C@@H](C)O,SHB SH2 domain,binding,,,,Kd,0.577 µM
CC[C@H](C)[C@@H]1NC(=O)[C@H](Cc2ccc(O)cc2)NC(=O)CSC[C@@H](C(N)=O)NC(=O)CNC(=O)[C@H](Cc2c[nH]cn2)NC(=O)[C@H](CCCNC(=N)N)NC(=O)[C@H](CC(N)=O)NC(=O)[C@@H]2CCCN2C(=O)[C@H](Cc2ccccc2)NC(=O)[C@H]([C@@H](C)O)NC(=O)CNC(=O)[C@H](CC(C)C)NC(=O)[C@@H]2CCCN2C(=O)[C@H]([C@@H](C)O)NC(=O)[C@H](CCCCN)NC1=O,"Vacuolar protein sorting-associated protein 29 (VPS29, Homo sapiens, UniProt Q9UBQ0)",ITC,,25 °C,,Kd,0.064 ± 0.005 µM
COc1ccc(C(CN(C)C)C2(O)CCCCC2)cc1 (stereo not drawn),"Nuclear receptor subfamily 2 group C member 2, ligand-binding domain (Homo sapiens, UniProt P49116)",SPR imaging,,,,Kd,0.00799 µM
CSCC[C@H](NC(=O)CNC(=O)[C@H](Cc1ccccc1)NC(=O)[C@H](CC(=O)O)NC(=O)CNC(=O)c1ccc2c(c1)C(=O)OC21c2ccc(N(C)C)cc2Oc2cc(N(C)C)ccc21)C(=O)N[C@@H](CO)C(=O)N[C@@H](CCCNC(=N)N)C(=O)N[C@@H](CC(=O)O)C(=O)N[C@H](C(=O)N[C@@H](Cc1ccc(OP(=O)(O)O)cc1)C(=O)N[C@@H](CO)C(=O)N[C@H](C(=O)N[C@@H](CC(=O)O)C(=O)N[C@@H](Cc1ccc(O)cc1)C(=O)N[C@@H](Cc1ccc(O)cc1)C(=O)N[C@@H](CCCNC(=N)N)C(=O)N[C@H](C(=O)N[C@@H](CC(=O)O)C(=O)O)C(C)C)[C@@H](C)O)C(C)C,"Tyrosine-protein kinase Lyn, SH2 domain (LYN, Homo sapiens, UniProt P07948)",binding,,,,Kd,1.04 µM
CC(=O)N[C@H](C(=O)N[C@@H](CC(N)=O)C(=O)N[C@@H](CCCCN)C(=O)N1CCC[C@H]1C(=O)N[C@@H](CC(C)C)C(=O)N1CCC[C@H]1C(=O)N1CCC[C@H]1C(=O)N[C@@H](CC(C)C)C(=O)N1CCC[C@H]1C(=O)N[C@H](C(=O)N[C@@H](C)C(N)=O)C(C)C)C(C)C,"High osmolarity signaling protein SHO1, SH3 domain (SHO1, Saccharomyces cerevisiae, UniProt P40073)","binding, isothermal titration calorimetry","50 mM sodium phosphate, 100 mM NaCl","pH 7.0, 25 °C",,Kd,3.4 ± 0.3 µM
C[C@H](N)C(=O)N[C@@H](CCCNC(=N)N)C(=O)N[C@H](C(=O)N[C@@H](CCCCN)C(=O)N[C@@H](CCC(N)=O)C(=O)N[C@H](C(=O)N[C@@H](C)C(=O)N[C@@H](CCCNC(=N)N)C(=O)N[C@@H](C)C(=O)N[C@@H](CO)C(=O)O)[C@@H](C)O)[C@@H](C)O,"Transcriptional regulator ATRX (ATRX, Homo sapiens, UniProt P46100, F284Y/K251R)","binding, isothermal titration calorimetry",,"pH 7.5, 25.0 °C",,Kd,26.8 µM
C[C@H]1CN(c2n[nH]c3nc(N[C@H]4CC[C@H](NS(=O)(=O)CCC(F)(F)F)CC4)ncc23)CCO1,"TNF receptor-associated factor 2 (Homo sapiens, UniProt Q12933)","Kinobeads competition, refers to: TRAF2",,"0.8 µM, unit not given",relative to: vehicle,remaining binding,1.08
COc1cc2c(Oc3ccc4[nH]c(C)cc4c3F)ccnc2cc1OCC1(N)CC1,,,paediatric recurrent refractory sarcoma,"concentration not given, whole group",,grade 1 or 2 sinus arrhythmia,2.9%
CC[C@H](CO)Nc1nc(NCc2ccc(-c3ccccn3)cc2)c2ncn(C(C)C)c2n1,"CLK2 (Homo sapiens, UniProt P49760)","binding, competition affinity chromatography",SH-SY5Y cell extract,,,Kd,6.24 µM
CC[C@H](C)[C@H](NC(=O)CNC(=O)[C@H](CC(=O)O)NC(=O)[C@H](Cc1ccc(OP(=O)(O)O)cc1)NC(=O)[C@@H]1CCCN1C(=O)[C@H](CCCCN)NC(=O)[C@H](CO)NC(=O)CNC(=O)[C@H](Cc1ccccc1)NC(=O)[C@@H](NC(=O)[C@H](CCSC)NC(=O)[C@H](CC(C)C)NC(=O)[C@H](CCC(=O)O)NC(=O)c1ccc2c(c1)C(=O)OC21c2ccc(N(C)C)cc2Oc2cc(N(C)C)ccc21)[C@@H](C)O)C(=O)N1CCC[C@H]1C(=O)N[C@@H](C)C(=O)N[C@@H](CO)C(=O)N[C@@H](CCC(=O)O)C(=O)N[C@@H](CC(=O)O)C(=O)O,SHB SH2 domain,binding,,,,Kd,1.06 µM
COc1cc(Nc2ncc(F)c(Nc3ccc4c(n3)NC(=O)C(C)(C)O4)n2)cc(OC)c1OC,"SSTR5 (Homo sapiens, UniProt P35346)",,,,,IC50,> 10 µM
CCCCCCCCCCCCCCCC[N+](C)(C)C,Gdx-Clo mutant G10I/W16G/A17T/M39Y/A60T/A67I/K101N,tryptophan fluorescence,,,,Kd,6.5 µM
COC1=C2C[C@@H](C)C[C@H](OC)[C@H](O)[C@@H](C)/C=C(\C)[C@H](OC(N)=O)[C@@H](OC)/C=C\C=C(/C)C(=O)NC(=C(C)C1=O)C2=O,"ATP-dependent molecular chaperone HSP82, N-terminal domain (HSP82, Saccharomyces cerevisiae S288c, UniProt P02829)","binding, isothermal titration calorimetry",,,,Kd,16.3 µM
CSCC[C@H](NC(=O)[C@H](Cc1ccc(OP(=O)(O)O)cc1)NC(=O)CNC(=O)CNC(=O)[C@H](CC(=O)O)NC(=O)[C@H](CO)NC(=O)[C@H](CCC(=O)O)NC(=O)CNC(=O)[C@@H](NC(=O)[C@H](CC(C)C)NC(=O)[C@H](CO)NC(=O)c1ccc2c(c1)C(=O)OC21c2ccc(N(C)C)cc2Oc2cc(N(C)C)ccc21)[C@@H](C)O)C(=O)N[C@@H](CC(=O)O)C(=O)N[C@@H](CCSC)C(=O)N[C@@H](CO)C(=O)N[C@@H](CCCCN)C(=O)N[C@@H](CC(=O)O)C(=O)N[C@@H](CCC(=O)O)C(=O)N[C@@H](CC(=O)O)C(=O)O,"Tyrosine-protein phosphatase non-receptor type 6, SH2 domains (PTPN6, Homo sapiens, UniProt P29350)",binding,,,,Kd,1.02 µM
CC[C@H](C)[C@@H]1NC(=O)[C@@H]2CCCN2C(=O)[C@H](CC(C)C)NC(=O)[C@H](CC(C)C)NC(=O)CNC(=O)[C@@H](NC(=O)[C@@H](NC(=O)[C@H](CC(=O)O)NC(=O)CNC(=O)[C@@H](NC(=O)[C@H](C)NC(=O)CNC(=O)[C@H](CCCCN)NC(=O)[C@H](CC(C)C)NC(=O)[C@H](CC(C)C)NC(=O)[C@H](CCCCN)NC(=O)CNC(=O)[C@@H](NC(=O)[C@@H](N)CC(C)C)C(C)C)C(C)C)C(C)C)CSSC[C@@H](C(=O)O)NC1=O,,"RNA-seq, refers to: Iigp1 mRNA","mouse traumatic brain injury, frontal cortex and hippocampus",dose not given,relative to: TBI plus compound vs TBI,log2 fold change,-1.68
Cc1cn([C@H]2C[C@H](O)[C@@H](COP(=O)(O)OP(=O)(O)OP(=O)(O)O)O2)c(=O)[nH]c1=O,"DNA polymerase I, Klenow fragment (polA, Escherichia coli, UniProt P00582, C907S/D424A/L744C)","nucleotide incorporation, substrate, single-turnover rapid quench",,with: radiolabelled primer-template DNA,,Kd,17 ± 1 µM
CC[C@H](C)[C@H](NC(=O)[C@H](CC(=O)O)NC(=O)[C@H](Cc1ccccc1)NC(=O)[C@@H](NC(=O)[C@H](CC(N)=O)NC(=O)[C@@H](NC(=O)[C@H](CC(=O)O)NC(=O)c1ccc2c(c1)C(=O)OC21c2ccc(N(C)C)cc2Oc2cc(N(C)C)ccc21)C(C)C)[C@@H](C)O)C(=O)N[C@H](C(=O)N[C@H](C(=O)N[C@@H](Cc1ccc(OP(=O)(O)O)cc1)C(=O)N[C@@H](CC(C)C)C(=O)N[C@@H](CC(C)C)C(=O)N[C@@H](CCC(N)=O)C(=O)NCC(=O)N[C@@H](CCCNC(=N)N)C(=O)N[C@@H](CCCNC(=N)N)C(=O)N[C@@H](CC(C)C)C(=O)N[C@@H](CC(=O)O)C(=O)O)C(C)C)[C@@H](C)O,"Growth factor receptor-bound protein 7, SH2 domain (GRB7, Homo sapiens, UniProt Q14451)",binding,,,,Kd,0.484 µM
Nc1nc2c(ncn2[C@@H]2O[C@H](COP(=O)(O)OP(=O)(O)OP(=O)(O)O)[C@@H](O)[C@H]2O)c(=O)[nH]1,"GTP 3',8-cyclase (moaA, Staphylococcus aureus, UniProt P69848, R266K)","binding, isothermal titration calorimetry",,"25 °C, R266K mutant, anaerobic",,Kd,1.79 ± 0.7 µM
N.N.[Cl][Pt][Cl],"PPIA (Homo sapiens, UniProt P62937)",HDX MALDI-MS,,,,Kd,37 µM

# For quick reference, copied from above:
SMILES,target or system,test,test system,conditions,scale,quantity,result
Cc1cn([C@H]2C[C@H](O)[C@@H](COP(=O)(O)OP(=O)(O)OP(=O)(O)O)O2)c(=O)[nH]c1=O,"DNA polymerase I, Klenow fragment (polA, Escherichia coli, UniProt P00582, C907S/D424A/L744C)","nucleotide incorporation, substrate, single-turnover rapid quench",,with: radiolabelled primer-template DNA,,Kd,17 ± 1 µM
CC[C@H](C)[C@@H]1NC(=O)[C@@H]2CCCN2C(=O)[C@H](CC(C)C)NC(=O)[C@H](CC(C)C)NC(=O)CNC(=O)[C@@H](NC(=O)[C@@H](NC(=O)[C@H](CC(=O)O)NC(=O)CNC(=O)[C@@H](NC(=O)[C@H](C)NC(=O)CNC(=O)[C@H](CCCCN)NC(=O)[C@H](CC(C)C)NC(=O)[C@H](CC(C)C)NC(=O)[C@H](CCCCN)NC(=O)CNC(=O)[C@@H](NC(=O)[C@@H](N)CC(C)C)C(C)C)C(C)C)C(C)C)CSSC[C@@H](C(=O)O)NC1=O,,"RNA-seq, refers to: Iigp1 mRNA","mouse traumatic brain injury, frontal cortex and hippocampus",dose not given,relative to: TBI plus compound vs TBI,log2 fold change,-1.68
